Experimental data gathered from unrelated publications.
Values joined by “and” are separate records of one study, mostly repeats; a detail may differ. ± gives the spread as reported.

SMILES | cell line | assay | setting | how to read | endpoint | result
Cl.Cl.O=S(=O)(c1cccc2cnccc12)N1CCCNCC1 | HeLa expressing Ub(G76V)-GFP | Ub(G76V)-GFP degradation, cycloheximide chase | 12 µM | – | inhibition | -1%
CC/C(=N\NC(=O)C(C)Nc1ccccc1)c1ccc(O)c(C)c1O (centres unmarked) | SK-OV-3 | Western blot | 10 µM, 6 h, 3D gellan gum culture, unit not given | relative to: DMSO | LATS band intensity | 1 ± 0.26
O=C(Nc1nnc2n3c(nc(-c4ccc(Cl)cc4)c1-2)SCC3=O)c1ccccc1 | Hs-578T | SRB | 10 µM, NCI60 single-dose screen | relative to: untreated | cell growth | 89.2%
Cc1cc(C)c(CNC(=O)c2cc(-c3ccc(CN4CCOCC4)cc3)cc3c2cnn3C2CCCC2)c(=O)[nH]1 | HBL-1 | – | 0.5 µM, 120 h | – | viability | 110%
C=CCn1c(=O)c2cnc(Nc3ccc(N4CCN(C)CC4)cc3)nc2n1-c1ccc2c(n1)[C@@](O)(CC)CC2 | OVCAR-3 | flow cytometry | concentration not given, G1 phase | – | γH2AX-positive cells | 9.4%
CC(C)C[C@@H](C=O)NC(=O)[C@H](CC(C)C)NC(=O)[C@H](CC(C)C)NC(=O)OCc1ccccc1 | BT-12 | cell viability, MTT | 10 µM, 72 h | – | inhibition | 81.5%
CC(/C=C/C(=O)NO)=C\[C@@H](C)C(=O)c1ccc(N(C)C)cc1 | HBL-1 | – | 0.5 µM, 120 h | – | viability | 0.843%
OCc1ccc(Nc2ccc3c(Nc4cccc(C(F)(F)F)c4)ncnc3c2)cc1 | MDA-MB-231 | – | IC50, 24 h | – | G2/M phase cells | 7.71%
Cn1c(Nc2nc3ccc(C(F)(F)F)cc3s2)nc2cc(C(=O)NCCOCCO)ccc21 | SH-SY5Y | RNA-seq, measured: GREM1 mRNA | 5 µM, 5 h | relative to: untreated cells | fold change | 2.34
O=C(CCCCCCC(=O)Nc1cccnc1)NO | HBL-1 | – | 0.1 µM, 120 h | – | viability | 102%
NC(=O)c1cccc(-c2cc(Nc3ccc(OC(F)(F)F)cc3)ncn2)c1 | HeLa expressing Ub(G76V)-GFP | Ub(G76V)-GFP degradation, inhibitor, cycloheximide chase | 12 µM | – | inhibition | 17%
CC(Nc1nc(N2CCCC2)nc2ccccc12)c1ccccc1 (centres unmarked) | HeLa Kyoto | RelA nuclear import, high content imaging | 0.5 µM, 3 h, together with: 1 µM PMA, 60 min | – | cells with nuclear RelA | 91.1% and 82.1%
[NH2][Pt]([NH2])([Cl])[Cl] | WiDr | cell growth, sulforhodamine B | – | – | GI50 | 26 ± 4 µM
Cl.Cl.OCCOCCN1CCN(Cc2cccc(Oc3ccccc3)c2)CC1 | BT-12 | cell viability, MTT | 10 µM, 72 h | – | inhibition | 83.2%
O=C(/C=C/C=C/C=C/C1CCCCC1)NC1=C[C@@](O)(/C=C/C=C/C=C/C(=O)NC2=C(O)CCC2=O)[C@@H]2O[C@@H]2C1=O | NCI-H2110 | cell growth, CellTiter-Glo | 78 h | – | GI50 | 17.3 µM
COc1cc2c(NC3CCN(CC4CCCCC4)CC3)nc(N3CCCN(C(C)C)CC3)nc2cc1OCCCN1CCCCC1 | HBL-1 | – | 0.5 µM, 120 h | – | viability | 108%
O=c1[nH]nc(OCCCc2ccc(Cl)cc2)c(NCc2cccnc2)c1Br | HEK-293T | RNA-seq GSEA, measured: HALLMARK_ESTROGEN_RESPONSE_LATE | concentration not given | direction not given | normalized enrichment score | -1.26
CCc1cc2c(N3CCN(c4nncs4)CC3)ncnc2s1 | HBL-1 | – | 0.1 µM, 120 h | – | viability | 136%
CCn1cc(-c2cc(Cn3ccnc3)cc3c2CCN([C@H](c2cc(OC)ccn2)C2CC2)C3=O)c(C(F)(F)F)n1 | ChaGo-K-1 | cell growth, inhibitor | 120 h | – | EC50 | 13.2 µM
CC1=CC(=O)CC(C)(C)[C@@]1(O)/C=C/C(C)=C\C(=O)O | HBL-1 | – | 0.5 µM, 120 h | – | viability | 72%
Nc1nc(S)nc(O)c1N=Cc1cn(-c2ccccc2)nc1-c1ccc(Cl)cc1 | CCRF-CEM | JC-1 flow cytometry | CC50, 5 h | – | depolarized mitochondria | 24.9%
Cc1[nH]c(/C=C2\C(=O)Nc3ccc(S(=O)(=O)N(C)c4cccc(Cl)c4)cc32)c(C)c1C(=O)N1CCN(C)CC1 | HeLa expressing Ub(G76V)-GFP | Ub(G76V)-GFP degradation, inhibitor, cycloheximide chase | 12 µM | – | inhibition | 100%
COC(=O)c1ccc(N2CCN(C)CC2)c(NC(=O)c2cccc(OC)c2)c1 | HBL-1 | – | 0.5 µM, 120 h | – | viability | 123%
